Results of several laboratories.
Each numbered part is a random draw from the data of one study; scales do not carry over between parts. Changes are numbered by the printed parent chain.

Block 1
Target: CCNE2, cyclin fold, Cln2 fusion (human)
Technique: yeast growth competition, sequencing
Matrix: yeast
Setting: weak parent motif
Relative to: not given
Reading: higher = stronger binding
Parent: MASTL docking peptide (human); PMIAKNLMCELDE; partner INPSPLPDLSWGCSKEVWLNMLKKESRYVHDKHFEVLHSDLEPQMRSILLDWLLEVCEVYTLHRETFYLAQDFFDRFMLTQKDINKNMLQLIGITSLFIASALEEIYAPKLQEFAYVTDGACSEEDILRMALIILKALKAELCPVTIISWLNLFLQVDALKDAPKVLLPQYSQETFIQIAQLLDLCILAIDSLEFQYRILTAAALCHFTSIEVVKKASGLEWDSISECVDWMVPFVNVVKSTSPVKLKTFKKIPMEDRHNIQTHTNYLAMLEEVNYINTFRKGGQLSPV
| Variant | normalised enrichment score |
| --- | --- |
| K5W | -0.0933 |
| C9N | 0.0254 |
| A4D | 0.0921 |
| N6Q | -0.182 |
| E10V | 0.299 |
| L11P | -0.232 |
| E10C | -0.166 |

Block 2
Target: Interferon regulatory factor 5, full length, phosphomimetic (IRF5, Homo sapiens, UniProt Q13568-2, residues 1-514, S451D/S453D/S456D/S462D)
Technique: protein-binding microarray
Form: double-stranded DNA, one strand shown
Matrix: in vitro
Tested at: 940 nM top
Setting: 60-bp whole probe
Added: salmon DNA 0.4 mg/ml
Relative to: random background probes
Reading: higher = stronger binding
Shared flanks, not repeated: GCCTAGCAC … GTGCTAGGTCTTGATTCGCTTGACGCTGCTG
| Sequence | fitted relative affinity |
| --- | --- |
| TTAGGACTGGGTTTCGGTGA | 5.13 z-score |
| CTGTTTTTGCTTTCCTTTAT | 2.49 z-score |
| GACGGGTCCCTTTTCCTGAC | 0.228 z-score |
| TTAGTTTTCCTTATCCTTTA | 2.8 z-score |
| CCACTCTTGCTTTTTAGATC | 1.07 z-score |
| GACGGACTGCGTTTCGGGAC | 0.487 z-score |

Block 3
Target: Histone acetyltransferase KAT6A, both winged helices, GST fusion (KAT6A, Homo sapiens, UniProt Q92794, residues 1-181)
Technique: protein binding microarray
Form: double-stranded DNA, one strand shown
Matrix: in vitro
Tested at: not given
Setting: 8-mer, flanks averaged, mean of 2 arrays, mostly near background
Relative to: not given
Reading: higher = stronger binding
Residues (chain): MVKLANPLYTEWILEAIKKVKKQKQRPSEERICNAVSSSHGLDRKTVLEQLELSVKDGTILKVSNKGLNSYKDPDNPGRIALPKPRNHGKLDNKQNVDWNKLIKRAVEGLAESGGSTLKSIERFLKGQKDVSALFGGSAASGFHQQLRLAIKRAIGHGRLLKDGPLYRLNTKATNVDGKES
| Sequence | E-score |
| --- | --- |
| CATCCTAA | -0.017 |
| ACACGAAG | -0.0221 |
| AACACTGC | 0.0382 |
| GAGGCCGC | 0.219 |
| CCGACATA | 0.0748 |
| ACGACAGG | -0.0774 |
| CAGGGGCC | 0.0516 |

Other studies, line by line
| Substance | target | assay | system | setting | how to read | endpoint | result |
| --- | --- | --- | --- | --- | --- | --- | --- |
| PhoQ, residues 284 288 289 292 302 303 SSTMSV | PhoP, residues 12 14 15 18 19 AQALL (Escherichia coli, UniProt P23836) | Sort-seq, item: YFP reporter | E. coli | PhoQ-PhoP variant library, added: 10 µM Mg2+ | relative to: high Mg2+ state, higher = stronger signaling | fold induction | 9.96 |

Excerpt of the above (block 2):
| Sequence | fitted relative affinity |
| --- | --- |
| TTAGGACTGGGTTTCGGTGA | 5.13 z-score |
| CCACTCTTGCTTTTTAGATC | 1.07 z-score |
| CTGTTTTTGCTTTCCTTTAT | 2.49 z-score |
